Measurements of several laboratories.
A part holds a random share of what one study measured.

Block 1 — technique: aptamer microarray, sandwich; form: DNA with 2'F-ANA; sample: in vitro; tested at: 200 nM; with: Cy3 exosite-II aptamer, 400 nM; reading: higher = stronger binding; oligonucleotide: GGTTGGTGTGGTTGG
Target: Prothrombin, mature alpha-thrombin (F2, Homo sapiens, UniProt P00734)
Setting: whole 15-mer aptamer, many near background
Modification	mean fluorescence intensity [a.u.]
2'F-ANA at 2 3 5 6 7 9 12 15	175
2'F-ANA at 1 2 4 5 6 11 12 13 14	47.8
2'F-ANA at 1 4 6 8 10 11 13 14 15	148
2'F-ANA at 1 2 4 9 10 12 13 14 15	49
2'F-ANA at 1 2 4 5 6 7 10 11 13 15	51.9
2'F-ANA at 1 2 3 5 8 11 12 13 14	61.1
2'F-ANA at 1 5 8 11 12 13	81.7
2'F-ANA at 1 2 3 6 7 8 9 11 13	157
2'F-ANA at 1 5 7 8 9 12 13 14 15	48.8
2'F-ANA at 1 2 6 7 12 14 15	62.5
2'F-ANA at 3 5 6 8 10 11 12 13 14 15	68
2'F-ANA at 4 5 7 8 10 11 13 14 15	49
2'F-ANA at 5 6 8 9 10 11 12 13 15	75.8
2'F-ANA at 4 6 7 9 13 14	67.2
2'F-ANA at 1 5 6 7 10 11 14	51.3
2'F-ANA at 1 2 3 4 6 8 9 12 15	357
2'F-ANA at 1 6 11 12 13 15	244
2'F-ANA at 1 2 3 5 6 8 11 15	94.6
2'F-ANA at 1 2 5 7 11 13	49.9
2'F-ANA at 4 5 6 7 9 10 11 12 13 14 15	50.2
2'F-ANA at 1 4 5 6 12 14	42.7
2'F-ANA at 4 5 7 8 10 11 13 15	44.9
2'F-ANA at 1 3 5 6 8 9 13	52.3
2'F-ANA at 1 2 3 5 9 11 12 14	110

Block 2 — technique: RNA Bind-n-Seq; form: RNA; sample: in vitro; tested at: 365 nM; relative to: no-protein control; reading: higher = stronger binding
Target: RNA binding protein fox-1 homolog 2, RRM domain, GST-SBP tag (RBFOX2, Homo sapiens, UniProt O43251-10, residues 100-194)
Setting: natural RNA segment, single round, ends assumed
Constant ends, left off below: GGGAGUUCUACAGUCCGACGAUC … UGGAAUUCUCGGGUGCCAA
Target sequence (chain): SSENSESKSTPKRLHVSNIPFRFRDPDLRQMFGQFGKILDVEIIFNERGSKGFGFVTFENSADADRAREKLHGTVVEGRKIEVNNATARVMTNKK
Oligonucleotide	RBNS enrichment (R)
UAUUAAAAUAUAUUUUAUAUUUUAUUCAUUAAUAUAACAACAAUCCUAUCAGGAAAAGUUUCUAGAAAGCCAACGAGGGUCAGUAGUUUAGUGUCAUUCCUGGAAUUAAC	0.91
UUACGGGCUAAAUCAAGAGCAGCUUAAUCCUGUUUACAAUGUGAGCUUUUUGUGCGUCUGUGAAAUGUUUUACAGUGUUUCUCAUCAUCUGUUUCCCAGCAAGGUCUUUU	0.379
CCCUGUGUGGGACCACACUGUCAUCUCGCUGCUGGCAGAAAAGCCUGAUCCCAGGAGGCCCUGCAGUUCCCCCGACCCGCGGAUGGCAGUCUGGAAUAAAGCCCCCUAGU	0.217
AUUUGCCCGUUUACAAUCCUAGACGGACUGGGCCAUCAUUAGCUAAUAGCCUUUCUCCCUUGCCAUGUUUCUGGAAUGAACCGUGUACCUAGAACCUCUCCUUGCCACAG	7.93
GGGACUGAGACCCAGGCCUGGCAGGACCGUGCCUACAGAUACUGCAAACGUUCCUACAGCCUAGAGGUGCGUAUACACACCCAAGUACACGCAGCCAGGCAUUCAGGGGU	0.356
AUCUUCCUGGCACUUAGUGUUUCUAUGUUAUUGAAAAAUGAUGUUCCAGAAAGAUUACUUUUUUCCUCUUAUUUUUACUGCCAUUGUCGACCUAUUGUGGGACAUUUUUA	0.517
AGAGACGGGGUCUCGCAACAUUGCCCAGACUUCCUUUGUGUUAGUUAAUAAAGCUUUCUCAACUGCCUCAGCCUUGUGUGAGUUGAGGGGAGGUGUCACAUCCAGCUGGA	0.385
UCCAGAUACUUCUCUGUGAAAGUGGCCUCUCUACAGGGUGCCGUUCUGUUUUUUCCCAGUAGUACAAGGCCAGUGUCCUGAGCAAUGGGACCAGUUCUCCACCUGCUCUG	0.332
GGUAGCUUUUUUUUACCACACUACAGGACAUUACCUGUAGGCCCAGAAGACUACAGGCUGGUGUCCCUAGAGGGCCCAAUACAGUCAAUUCCAACCUCUAAGUCGGGGAA	0.196

Block 3 — technique: RNA Bind-n-Seq; form: RNA; sample: in vitro; tested at: 200 nM; setting: whole 134-nt RNA, ends assumed; with: 150 mM LiCl; relative to: input library; reading: higher = stronger binding; all molecules: 7-deaza-guanosine replaces G
Target: Ras GTPase-activating protein-binding protein 1, full length (G3BP1, Homo sapiens, UniProt Q13283)
UniProt Q13283, sequence (whole entry, looked up): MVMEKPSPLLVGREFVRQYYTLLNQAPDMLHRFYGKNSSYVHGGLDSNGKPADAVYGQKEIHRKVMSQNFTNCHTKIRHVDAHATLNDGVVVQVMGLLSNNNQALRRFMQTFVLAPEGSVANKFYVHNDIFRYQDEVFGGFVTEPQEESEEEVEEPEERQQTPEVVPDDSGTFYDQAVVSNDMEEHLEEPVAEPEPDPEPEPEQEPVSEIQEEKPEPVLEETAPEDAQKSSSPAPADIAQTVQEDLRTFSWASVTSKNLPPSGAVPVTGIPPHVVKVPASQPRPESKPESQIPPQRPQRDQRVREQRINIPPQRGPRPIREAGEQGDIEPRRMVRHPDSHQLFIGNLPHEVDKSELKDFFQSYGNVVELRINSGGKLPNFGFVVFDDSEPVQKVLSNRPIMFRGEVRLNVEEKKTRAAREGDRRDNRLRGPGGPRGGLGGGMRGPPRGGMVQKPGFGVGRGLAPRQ
Constant ends, left off below: GGGAGUUCUACAGUCCGACGAUC … UGGAAUUCUCGGGUGUCAAGG
Oligonucleotide	log2 enrichment
UCAAGUCCUGUGCUACACAUCGUAUGUACCGAAUCGGGUUGGGGUUGGGGUUGGAAAGUAUUAUGUUACGCCGUUCGGAUCUGCACUUCC	-0.313
GCAGGAAGUAAAAACAAAUGGAAAUGCUUCGGAUAGUGGCAGGGGUGGGGGUUGCUAAGGAAAGGGUGUGAUGGGAGUGGGUAAAGAGUU	-0.0814
UGGCCCUGGUGGCAUGCGGGGAGGAAGAGGUGGCCUCAUGGAUCGUGGUGGUCCCGGUGGAAUGUUCAGAGGUGGUCGUGGUGGAGACAG	-0.0585
AGUCCUGUGCUACACAUCGUAUGUACCGAAUCGGUUUUUUUGGUUUGGUUUUUUUGGAAAGUAUUAUGUUACGCCGUUCGGAUCUGCACU	-2.27
UGGGAGGUGGAGUUUGUUUAUUUUUUUAGCUCAUUUCCAGGGGUGGGAAUUUUUUUUUAAUAUGUGUCAUGAAUAAAGUUGUUUUUGAAA	-0.812
CCUGUGCUACACAUCGUAUGUACCGAAUCGGGGAAAAAAGGGGAAAAAAGGAAAAAAGGGGAAAGUAUUAUGUUACGCCGUUCGGAUCUG	0.803
UCAAGUCCUGUGCUACACAUCGUAUGUACCGAAUCGGUUUGGAAAGGAAAAAGGAAAGUAUUAUGUUACGCCGUUCGGAUCUGCACUUCC	-0.377
ACCAUGAAGGUGGGCAUCUUUGGGAAGUGGGGCAAGGGGGGGAUAGGGAGGGGGGUAACACUUUGGGAACAGGUGGUCCCAGGUCGUUUC	0.286

Block 4 — technique: RNA Bind-n-Seq; form: RNA; sample: in vitro; tested at: not given; relative to: input RNA pool; reading: higher = stronger binding
Target: RING finger protein unkempt homolog, zinc fingers 1-6, GST-SBP tag (UNK, Homo sapiens, UniProt Q9C0B0, residues 30-357)
Setting: RNA with constant flanks, human and mouse sites, ends assumed
Constant ends, left off below: GGGAGUUCUACAGUCCGACGAUC … CAACAGAGGAUUGAGCAUCA
Target sequence (chain): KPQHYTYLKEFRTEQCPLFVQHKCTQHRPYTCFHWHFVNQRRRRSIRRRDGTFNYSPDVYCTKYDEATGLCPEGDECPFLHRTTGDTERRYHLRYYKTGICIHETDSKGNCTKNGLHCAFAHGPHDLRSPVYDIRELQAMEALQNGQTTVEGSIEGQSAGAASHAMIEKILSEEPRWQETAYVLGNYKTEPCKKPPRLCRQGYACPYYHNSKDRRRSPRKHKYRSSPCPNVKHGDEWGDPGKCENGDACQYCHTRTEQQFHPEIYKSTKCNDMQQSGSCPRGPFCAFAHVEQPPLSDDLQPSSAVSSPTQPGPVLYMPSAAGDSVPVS
Oligonucleotide	bound/input enrichment [ratio]
AUGAGUAAACAAUAUGGUAAUGAAGUAUUUCUGGCCAAGCUUAUUGCUCAGGCAUGCGUAUCUAUUUUUCCUGAUUCCGGCCAUUUCAAUGUUGAUAACAUCAGAGUUUGUAAAAUUCUG	0.131
CCCUGGCUGUCCUGGAACUCUCUCUGUAGACCAGGCUGGCCUCGAACUCAGGGAUCCACCUAGCUCUGUCUCUGAGUGCUGAGACUGAAGGUGUGCGCCGCCACGCCUGGCUUUUUUCCC	0.188
UGCAGGCUGUGCAGCUAUGUCACCCUGCGGGAGGAGUCUCUGCUCAGCCACAUAGAGAGGGACCACAUCACCGCACAGGUGCCCAAUGGCAGCGAGGCCUGUGUGGAGAACGGCAAACCU	0.0571
AAUCUUCAAUGAGUAAACAUAUUCCUCAAUUCUGUGGUGUUCUUGGUCACACAUUUAUGGAGUUUCUGAAGGGCAGUGGAGAUUACUGCCAGGCACAGCACGACCUCUAUGCAGACAAGU	0.248
GCCAUUAUACAUAUAAAGAAGCAUCAGGUGUCUGUGGAGGGGACAAAUCAAACAGAUGUGAAAGCAGUUGGGGGACCAGCAAAGCUGCUUGUGGUAUCUCUAGAGGAAGCCUGGCCUCUG	0.182
AAGCCUCCAAAGCGGAAGAAGGCAGACACUGAGGGAAAGUCUCCAUCUCAUAGUUCUUCUAACAGACCUUUUACCCCACCUACCAGUACAGGUGGAUCUAAAUCGCCAGGCAGUGCAGGA	0.169
AACUUCGUGCAUCGGUUUCCCUUUGUAGCUGUUUCAAUUGGCUUCCUUGUGAAUAAAGAGAUGGAGUUUGGAAUUGUGUACAGCUGUGUGGAAGAUAAGAUGUACACCGGCAGGAAAGGG	0.371
CUCCGGAGAUCUGCAUAUCCCCACCGUUUGAAUCUCUUUUACCUUGCCAAUGAUGUCAUACAGAACUGUAAAAGGAAAAAUGCAAUCAUAUUCCGUGAAUCAUUUGCUGAUGUACUUCCU	0.287
AAGACCAUCACCCUGGAAGUGGAGCCCAGUGACACCAUCGAAAAUGUGAAGGCCAAGAUCCAGGAUAAAGAAGGCAUCCCUCCCGACCAGCAGAGGCUCAUCUUUGCAGGCAAGCAGCUG	0.045
CGCUGCCGUGUGGGCCAAUGGGUGCGCAUGGAGAAUGUAACAGUGCUGGGUGAAGAUGUCAUAGUUAAUGAUGAACUGUACCUCAAUGGAGCCAGCGUGCUGCCCCACAAGUCUAUCGGG	0.263
CAGAAAAUUUACAACAAAAUCCCAGGGACCAGCAACAAUGGAUUAGAGGAGGAGUUUAAGAAGUUAACAUCAAUCAAAAUCCAGAAUGACAAGAUGCGGACUGGAAACCUUCCAGCCAAC	0.197
